Published values collected from several papers.
Lines come from different studies, so protocols differ. Numbers after ± are the reported error.
Cell line: A2780

SMILES | assay | setting | how to read | endpoint | value
CCCCCCCCCCCCCCCCNC(=O)[O][Pt]([Cl])([Cl])[O]C(=O)CCC(=O)O.N.N | flow cytometry | 0.2 µM, 24 h |  | cells in S phase | 51.1%
COc1ccc(CC2COC(=O)C2Cc2ccc3c(c2)OCO3)cc1OC (mixture of isomers) | annexin V/7-AAD | 8.75 µM, 72 h | relative to: untreated | apoptotic cells | increased
Cc1cc(C)c([N+]#[C][Pt-]([Cl])([Cl])=[C](Nc2ccc(CN[C](Nc3c(C(C)C)cccc3C(C)C)=[Au][Cl])cc2)Nc2c(C)cc(C)cc2C)c(C)c1 | cell growth or viability |  |  | IC50 | > 100 µM
CCCC(C)NC(=O)C(Nc1ccccc1C(=O)c1ccccc1)c1cn(C)c2ccccc12 (stereo not shown) | cell growth or viability, MTT | 72 h |  | GI50 | 7 µM
Cc1cc(C)c([N+]#[C][Pd-]([Cl])([Cl])=[C](Nc2cccc(CN[C](Nc3c(C(C)C)cccc3C(C)C)=[Au][Cl])c2)Nc2c(C)cc(C)cc2C)c(C)c1 | cell growth or viability |  |  | IC50 | 12 µM
O=C(OCc1ccc(F)cc1)N(Cc1cccc(CN2CCCCC2)c1)[c-]1cccc1.[Fe+2].c1cc[cH-]c1 | MitoSOX | 25 µM, 2 h |  | mitochondrial ROS | increased
CC12CCC3c4ccc(OCCCOc5no[n+]([O-])c5S(=O)(=O)c5ccccc5)c(Br)c4CCC3C1CCC2O (stereo not shown) | MTT | 100 nM, 24 h, with: haemoglobin 0 to 10 µM |  | antiproliferative activity | decreased
CC(C)=CCC1=C([O-])C(=O)c2ccccc2C1=O.CC(C)=CCC1=C([O-])C(=O)c2ccccc2C1=O.[Cu+2].c1ccc(-c2ccnc3c2ccc2c(-c4ccccc4)ccnc23)cc1 | ICP-MS | concentration not given, 24 h | relative to: untreated | intracellular copper | ~4 fold
Cc1c(C)n(-c2c(C(C)C)cccc2C(C)C)c(=[Se])n1-c1c(C(C)C)cccc1C(C)C.[Cl][Ag] | cell growth or viability, MTT | 72 h |  | IC50 | 0.5 µM
Cc1cc(C)c(N=[C](NCc2ccc(N)cc2)[AuH][Cl])c(C)c1 | cell growth or viability |  |  | IC50 | 1.9 µM
CN(C)C(=O)c1ccc(COC(=O)N[c-]2cccc2)cc1.[Fe+2].c1cc[cH-]c1 | CM-DCFH-DA | 25 µM, 2 h | relative to: DMSO | total ROS level | 2.2 ± 0.6 fold
CC(C)=CCC1=C([O-])C(=O)c2ccccc2C1=O.O=[N+]([O-])[O-].[Cu+2].c1ccc(-c2cccc(-c3ccccn3)n2)nc1 | cell viability, MTT | 72 h |  | IC50 | 0.38 ± 0.01 µM
Oc1ccccc1-c1nn(-c2ccccn2)[n+](-c2ccccc2)n1.[Br-] | flow cytometry | 40 µM, 48 h |  | late apoptotic cells | 30%
CC(C)c1cccc(C(C)C)c1[N+]#[C][Pt-]([Cl])([Cl])=[C](Nc1ccc(CN[C](NC(C)(C)C)=[Au][Cl])cc1)Nc1c(C(C)C)cccc1C(C)C | cell growth or viability |  |  | IC50 | > 100 µM
[Br-].c1ccc(-c2nn(-c3ccccn3)[n+](-c3ccccc3)n2)cc1 | flow cytometry | 40 µM, 48 h |  | late apoptotic cells | 15%
CC(C)c1cccc(C(C)C)c1-n1c(Cl)c(Cl)n(-c2c(C(C)C)cccc2C(C)C)c1=[Se].[Cl][Ag] | cell growth or viability | 72 h, 3D culture |  | IC50 | 29.1 µM

Repeated from above:
SMILES | assay | setting | how to read | endpoint | value
CCCCCCCCCCCCCCCCNC(=O)[O][Pt]([Cl])([Cl])[O]C(=O)CCC(=O)O.N.N | flow cytometry | 0.2 µM, 24 h |  | cells in S phase | 51.1%
